Results gathered from unrelated publications.
Numbered parts are unrelated; each lists some results of a single study. Positions count from the first letter of the parent shown.

Series 1 — method: DHFR PCA, deep sequencing; matrix: yeast; added: (+)-ABA 710 µM; relative to: wild-type fitted maximum; reading: higher = stronger binding; measurement: relative binding score
Target: ABI1, truncated, D143A, DHFR fusion (Arabidopsis thaliana)
Notes: methotrexate growth selection, single substitutions
Starting sequence: PYL1, truncated, DHFR fusion (Arabidopsis thaliana); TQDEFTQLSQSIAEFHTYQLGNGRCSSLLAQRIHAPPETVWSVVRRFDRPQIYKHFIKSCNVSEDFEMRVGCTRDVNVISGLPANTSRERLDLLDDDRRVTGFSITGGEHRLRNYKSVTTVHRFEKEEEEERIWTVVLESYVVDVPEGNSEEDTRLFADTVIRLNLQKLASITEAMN
V142Q: 97.5%
R90N: 85.7%
L82F: 76.9%
I52Y: 102%
E130H: 108%
V70N: 83.5%
L91Y: 17.6%
T39F: 96.4%
T86K: 97.5%
T120E: 43.7%
C72F: 93.3%
T120A: 46.2%
Y141C: 36.7%
V44F: 7.3%
G71N: 87.1%
L8Y: 84.7%
P83M: 44%
Y115P: -18.3%
A35L: 49.3%
H55K: 100%
K116Q: 89.9%
L112N: -14.5%

Series 2 — method: RNA Bind-n-Seq; molecule type: RNA; matrix: in vitro; tested at: not given; relative to: input RNA pool; reading: higher = stronger binding; measurement: bound/input enrichment
Target: RING finger protein unkempt homolog, zinc fingers 1-6, GST-SBP tag (UNK, Homo sapiens, UniProt Q9C0B0, residues 30-357)
Chain of UniProt Q9C0B0 (30-357, looked up): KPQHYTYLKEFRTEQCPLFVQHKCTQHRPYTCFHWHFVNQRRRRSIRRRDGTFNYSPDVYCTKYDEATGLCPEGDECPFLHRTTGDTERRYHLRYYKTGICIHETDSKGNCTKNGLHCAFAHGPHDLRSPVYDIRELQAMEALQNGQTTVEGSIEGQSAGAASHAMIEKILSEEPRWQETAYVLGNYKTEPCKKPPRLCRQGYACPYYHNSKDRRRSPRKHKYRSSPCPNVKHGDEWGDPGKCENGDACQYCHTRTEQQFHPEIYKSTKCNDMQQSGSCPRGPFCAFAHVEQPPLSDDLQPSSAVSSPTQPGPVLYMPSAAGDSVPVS
Notes: RNA with constant flanks, human-mouse chimeric sites, ends assumed
All sequences stand within: GGGAGUUCUACAGUCCGACGAUC … CAACAGAGGAUUGAGCAUCA
GGAAGUACAAUGAUGGAGAUUGAUGGUGAUAAAGGCAAACAAGGCGGGCCCACCUACUACAUAGACACCAAUGCCCUCCGCGUGCCCAGGGAGAACAUGGAGGCCAUCUCACCACUCAAG: 0.236 ratio
GAGCCCAGCCGGCAGUUUGUAAAGGACUCAAUUCGGCUGGUUAAAAGAUGCACCAAACCCGACAGAAAAGAAUUCCAGAAGAUUGCCAUGGCUACAGCAAUAGGAUUUGCUAUCAUGGGA: 0.128 ratio
GGCCUGGGACCGUCCUGGGCUAGUACAAAUAGCGGCAGUGGAGGCUCGAGAGGAAAGUUGUUAGUGGGAGGCAGUGGUAGAGGCCGUCAUGUACGGUCCUUUACUCGUAAAAAUCCUUCU: 0.19 ratio
CAGGGCACAGCACCUACCCCCUCCUCCUUUCCACACCUGCAAACUCUUUUACUUGGGCUGAAUAUUUAGUGUUAAUUCAUCUCAGCUUUGAGGGCUCCUGUGGCAAAUUCCCGGAUUAAA: 0.64 ratio
UCGGAUGCUGUGCUGGGUCACUUUUCAUAUCCAGAUCCUUCCCAGUGGACAGAUGAAGAACUGGGAAUCCCUCCUGAUGACGAGGACUGACACUGUAAACUCUCUGGACGAGUAGGAGCA: 0.697 ratio
GUUCGGCUCUGGGAUCAUGCUACUAUGACAGAAGUGAAAUCUCUGAAUUUUAAUAUGUCUGUUAGUAGCAUGGAGUAUAUUCCUGAAGGAGAGAUUUUGGUUAUUACUUAUGGACGAUCU: 0.327 ratio
UACUACUAUGAUGGUGAUAUUGGAAAUUAUUAUUAUGGCCAGGGUCAUCCCAUGAAGCCUCAUAGAAUCCGGAUGACCCAUAACUUGCUGCUAAAUUAUGGUUUAUACCGAAAAAUGGAA: 0.272 ratio
CGGAAGUUCUUGAUUUAUCAUUUUUCUCUUUUCUUUCUUUCCUUUAGGAAAAGCCUAAAGAUUAGACUGUAAGAAAAACAGAAGCCAUGUUUCGAAGACCUGUGUUACAGGUAUUUCGUC: 0.173 ratio

Series 3 — target: CCNA1, cyclin fold, Cln2 fusion (human); method: yeast growth competition, sequencing; matrix: yeast; notes: weak parent motif; relative to: not given; reading: higher = stronger binding; measurement: normalised enrichment score
Starting sequence: CDKN1B docking peptide (human); PSACRNLFGPVDH; partner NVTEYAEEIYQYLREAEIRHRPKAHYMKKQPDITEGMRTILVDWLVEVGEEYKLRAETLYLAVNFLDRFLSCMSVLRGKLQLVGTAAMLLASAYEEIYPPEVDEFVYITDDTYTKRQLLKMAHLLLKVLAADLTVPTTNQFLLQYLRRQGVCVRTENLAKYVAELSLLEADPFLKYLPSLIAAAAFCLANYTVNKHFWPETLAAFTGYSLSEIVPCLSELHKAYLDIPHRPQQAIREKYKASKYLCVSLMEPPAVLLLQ
PSACRKLFGPVDH [N6K]: 0.214
PSACRNEFGPVDH [L7E]: 0.196
PSECRNLFGPVDH [A3E]: 0.414
PSACRNLFGNVDH [P10N]: 0.286
PNACRNLFGPVDH [S2N]: 0.183
PSMCRNLFGPVDH [A3M]: 0.368
ISACRNLFGPVDH [P1I]: 0.237
PSACRNLFQPVDH [G9Q]: 0.418
PSACRNLFGFVDH [P10F]: 0.323
PSACRNLQGPVDH [F8Q]: 0.332
PSNCRNLFGPVDH [A3N]: 0.394
PSACRNLFGPVYH [D12Y]: 0.332
PSACRPLFGPVDH [N6P]: -0.0506
PAACRNLFGPVDH [S2A]: 0.336
PSVCRNLFGPVDH [A3V]: 0.501
TSACRNLFGPVDH [P1T]: 0.576
PSGCRNLFGPVDH [A3G]: 0.241
PSACRNLFRPVDH [G9R]: -0.0166

Series 4 — method: protein-binding microarray; molecule type: double-stranded DNA, one strand shown; matrix: in vitro; tested at: 250 nM; notes: 60-bp whole probe; added: salmon DNA 0.4 mg/ml; relative to: random background probes; reading: higher = stronger binding; measurement: log fluorescence; all sequences stand within: GCCTAGCAC … GTCTTGATTCGCTTGACGCTGCTG
Target: Interferon regulatory factor 5, full length, phosphomimetic (IRF5, Homo sapiens, UniProt Q13568-2, residues 1-514, K96S/S451D/S453D/S456D/S462D)
GGCGGTTTCGGTTTCGGGACGTGCTAG: 10.7 z-score
TTAGATATCGGGTTTCGATTGGTGCTA: 7.52 z-score
GACGAACGGAGACTGGAGACGTGCTAG: -0.442 z-score
GACGATCTCAGTATCGAGTCGTGCTAG: 2.21 z-score
TTAGGTATCAGTCTCGATTAGTGCTAG: 2.3 z-score
TTAGGACTGGGGCTTCGGTTAGTGCTA: -0.0719 z-score
TTAGGACTGCGTATCGGTTAGTGCTAG: 2.94 z-score
GACGGTTCCCTTTTCCCGACGTGCTAG: 0.574 z-score
TTAGGACCGGGGTATCGGTTAGTGCTA: 2.6 z-score
TCAATTTTTTTTATCAAACTGTGCTAG: 0.963 z-score
TTAGGTATCCTTATGCTTTAGTGCTAG: 0.18 z-score
TTAGGTATCAACTATCGGTTAGTGCTA: 6.78 z-score
TCATTTTTTCATATATAACTGTGCTAG: 2.02 z-score
TTAGGTTTCCTGTTCCTTTAGTGCTAG: 0.658 z-score
AACGGTATCGGGTATCGGGACGTGCTA: 3.96 z-score
CCCTGAGTCCCTTGGGCCTTGTGCTAG: -0.754 z-score
TTAGGACTGCTACTGCCTTAGTGCTAG: -0.527 z-score

Series 5 — method: aptamer microarray, sandwich; molecule type: DNA with 2'F-ANA; matrix: in vitro; tested at: 200 nM; added: Cy3 exosite-II aptamer, 400 nM; reading: higher = stronger binding; measurement: mean fluorescence intensity; strand: GGTTGGTGTGGTTGG
Target: Prothrombin, mature alpha-thrombin (F2, Homo sapiens, UniProt P00734)
Notes: whole 15-mer aptamer, many near background
2'F-ANA at 3 4 9 11 12 13 14 15: 321 a.u.
2'F-ANA at 2 3 6 8 9 10 13 14 15: 288 a.u.
2'F-ANA at 1 2 3 4 5 6 7 12 13: 87.3 a.u.
2'F-ANA at 1 4 6 10 11 12 13 15: 53.4 a.u.
2'F-ANA at 2 4 6 8 11 12 13 15: 342 a.u.
2'F-ANA at 4 13: 208 a.u.
2'F-ANA at 1 2 4 5 8 10 11 14: 48.4 a.u.
2'F-ANA at 2 6 8 9 12 14 15: 155 a.u.
2'F-ANA at 3 4 5 10 11 12 13 14 15: 61.4 a.u.
2'F-ANA at 1 3 4 6 9 10 12 14 15: 100 a.u.
2'F-ANA at 3 4 5 6 7 8 9 10 14 15: 48.2 a.u.
2'F-ANA at 2 7 10 14: 90.5 a.u.
2'F-ANA at 2 3 4 5 8 10 13: 56.7 a.u.
2'F-ANA at 2 3 6 8 11 12 13: 801 a.u.
2'F-ANA at 1 3 5 9 11 13: 53.7 a.u.
2'F-ANA at 2 8 9 10 11 12 14 15: 84.3 a.u.
2'F-ANA at 3 5 7 8 9 10 11 13: 70.7 a.u.
2'F-ANA at 1 4 7 10: 51.8 a.u.
2'F-ANA at 1 3 5 6 8 10 11 13: 47.5 a.u.
2'F-ANA at 2 6 12 13 14 15: 175 a.u.
2'F-ANA at 2 5 8 10 11 13: 87.1 a.u.
2'F-ANA at 3 4 5 6 7 8 12 13: 160 a.u.
2'F-ANA at 2 4 6 9 12 15: 461 a.u.
2'F-ANA at 2 4 5 6 9 12: 165 a.u.
2'F-ANA at 1 3 5 11 12 13 14: 46.4 a.u.

Series 6 — method: protein binding microarray; molecule type: double-stranded DNA, one strand shown; matrix: in vitro; tested at: not given; relative to: not given; reading: higher = stronger binding; measurement: E-score
Target: Histone acetyltransferase KAT6A, winged helix 2, GST fusion (KAT6A, Homo sapiens, UniProt Q92794, residues 85-181)
Notes: 8-mer, flanks averaged, mean of 2 arrays, mostly near background
Construct (chain): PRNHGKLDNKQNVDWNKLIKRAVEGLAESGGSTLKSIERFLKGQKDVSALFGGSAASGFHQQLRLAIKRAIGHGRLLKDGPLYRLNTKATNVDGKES
CTCCAACC: 0.049
GTTGGGCA: 0.0132
GAGACGGC: 0.177
GTTAGTGA: -0.135
GTCGGGCA: 0.104
GGGAGCAC: -0.00607
CATGGGAG: -0.0523
CGCAGCCG: 0.0656
ATGAGCTA: 0.0156
CGTGTAAA: -0.0813
GTTCGAAC: 0.0655
ACCATCTC: -0.0731
AAATTAAC: 0.0731
CTTTTTCA: -0.00751
CAACGTTG: -0.0971
CCCAGGTA: -0.272
GGACGAAA: 0.13
CGTAATGC: -0.14
GGACATCA: 0.126
AGCACGGC: 0.0699
ACAGTGGT: -0.0959
GCATTGCA: 0.0892

Repeated from above (series 1):
K116Q: 89.9%
A35L: 49.3%
H55K: 100%
V142Q: 97.5%
T120E: 43.7%
E130H: 108%
T120A: 46.2%
R90N: 85.7%
L8Y: 84.7%
Y115P: -18.3%
C72F: 93.3%
V44F: 7.3%
L112N: -14.5%
V70N: 83.5%
L91Y: 17.6%
T39F: 96.4%
